Results from different studies.
Protocols differ between the studies behind these lines. ± marks the error that the study gave.
Organism: Escherichia coli

SMILES | test | test system | setting | how to read | endpoint | value
N.N.[Cl][Pt+].c1ccc2c(c1)cnc1ccccc12 | bacterial cytological profiling | BL21(DE3) | MIC, 24 h |  | average filament length | 44 µm
COc1cc(OC)c2c(c1)C(=O)c1cc3oc(=O)cc(-c4ccccc4)c3c(O)c1C2=O |  | MTCC 739 | 100 µg/disc |  | inhibition zone diameter | 12 mm
FC(F)(F)c1ccc2nc3c4cccnc4c4ncccc4c3nc2c1.[Cl-].[Cl-].[Ru+2].c1ccncc1.c1ccncc1.c1ccncc1.c1ccncc1 |  |  | LED irradiation 470 nm |  | MIC90 | 4 µM
Cc1ccc(C(=O)Sc2cccccc2=O)cc1 | time-kill | ATCC 35218 | 16 x MIC80, 6 h |  | reduction in viable count | ~3 log10 CFU
CCCCCCC1N=C(N)N=C(N)N1c1ccc(Cl)cc1.Cl (racemic) | broth microdilution | ATCC 25922 | without thymidine |  | MIC90 | > 128 µM
CC(=O)N[C@H]1[C@H](Oc2ccccc2-c2cccc(C(=O)O)c2)O[C@H](CO)[C@H](O)[C@@H]1O |  | UPEC CFT073, C3H/HeN mice, chronic cystitis, kidney | transurethral, 50 mg/kg, 6 h posttreatment | reference: vehicle | bacterial burden | decreased
N=C(N)NCCC[C@@H]1NC(=O)[C@H](CCCNC(=N)N)NC(=O)[C@H](CCCNC(=N)N)NC(=O)[C@H](Cc2ccc3ccccc3c2)NC(=O)[C@H](Cc2c[nH]c3ccccc23)NC(=O)[C@H](Cc2ccc3ccccc3c2)NC(=O)[C@H](CCCNC(=N)N)NC1=O | XTT | ATCC BAA-2452 | 2 × MIC |  | biofilm mass reduction | 60 to 65%
CCn1cc(/C=C/c2sc3ccccc3[n+]2CC)c2ccccc21 |  | 780 | 24 h |  | MBC | 25 ± 0.002 µg/mL
CC[C@H](C)[C@H](NC(=O)[C@H](CCCN)NC(=O)[C@H](CC(N)=O)NC(=O)[C@H](Cc1c[nH]c2ccccc12)NC(=O)[C@H](Cc1ccccc1)NC(=O)[C@H](CCCN)NC(=O)[C@H](CCCNC(=N)N)NC(=O)[C@H](CC(C)C)NC(=O)[C@H](Cc1c[nH]c2ccccc12)NC(=O)[C@H](CCCN)NC(=O)[C@H](CCCNC(=N)N)NC(=O)[C@H](CC(C)C)NC(=O)CNC(C)=O)C(=O)N[C@@H](CCCN)C(=O)N[C@@H](CCCNC(=N)N)C(N)=O |  | ATCC 25922 | 12 h, added: plasma pretreatment | reference: MIC without plasma pretreatment | MIC fold increase | 4 fold
CC[C@H](C)[C@H](NC(=O)[C@H](CCCNC(=N)N)NC(=O)[C@@H](N)CCCNC(=N)N)C(=O)N[C@@H](CCCNC(=N)N)C(=O)N1CCC[C@H]1C(=O)N[C@@H](CCCNC(=N)N)C(=O)N1CCC[C@H]1C(=O)N1CCC[C@H]1C(=O)N[C@@H](CCCNC(=N)N)C(=O)N[C@@H](CC(C)C)C(=O)N1CCC[C@H]1C(=O)N[C@@H](CCCNC(=N)N)C(=O)N1CCC[C@H]1C(=O)N[C@@H](CCCNC(=N)N)C(=O)N1CCC[C@H]1C(=O)N[C@@H](CCCNC(=N)N)C(=O)N1CCC[C@H]1C(=O)N[C@@H](CC(C)C)C(=O)N1CCC[C@H]1C(=O)N[C@@H](Cc1ccccc1)C(=O)N1CCC[C@H]1C(=O)N[C@@H](CCCNC(=N)N)C(=O)N1CCC[C@H]1C(=O)NCC(=O)N1CCC[C@H]1C(=O)N[C@@H](CCCNC(=N)N)C(=O)N1CCC[C@H]1C(=O)N[C@H](C(=O)N1CCC[C@H]1C(=O)N[C@@H](CCCNC(=N)N)C(=O)N1CCC[C@H]1C(=O)N[C@@H](CC(C)C)C(=O)N1CCC[C@H]1C(=O)N[C@@H](Cc1ccccc1)C(=O)N1CCC[C@H]1C(=O)O)[C@@H](C)CC | membrane permeabilization, propidium iodide flow cytometry | BW25113, Mueller-Hinton broth | 1 µM, 15 min, 37 °C |  | PI-positive cells | < 3%
c1ccc(CN2CCOCCOCCN(CCCCCCCCN3CCOCCOCCN(CCCCCCCCN4CCOCCOCCN(Cc5ccccc5)CCOCCOCC4)CCOCCOCC3)CCOCCOCC2)cc1 | K+ selective electrode | tetracycline-resistant | 4 µM, 10 min | reference: total | potassium release | 6%
CN1CCC(NCCC2(Cc3ccc(Cl)cc3)CCCCC2)CC1 | activator | TOP10F′ | 3 h |  | EC50 | > 60 µM
c1ccc(CN2CCOCCOCCN(CCCCCCCCCCCCN3CCOCCOCCN(CCCCCCCCCCCCN4CCOCCOCCN(Cc5ccccc5)CCOCCOCC4)CCOCCOCC3)CCOCCOCC2)cc1 | tetracycline MIC, checkerboard | tetracycline-resistant (pBR322) | 1/2 MIC, added: tetracycline | reference: MIC alone over combination | fold enhancement | 16 fold
CC(C)C[C@@H]1NC(=O)[C@H](CCCCN)NC(=O)CNC(=O)[C@H]2CCCN2C(=O)[C@H](CCCCN)NC(=O)[C@H](CC(C)C)NC(=O)[C@H](CCCCN)NC(=O)[C@H](CC(C)C)NC(=O)[C@H](CCCCN)NC(=O)C(N)CCC=CCCC(C(N)=O)NC(=O)[C@H](CCCCN)NC(=O)[C@H](CC(C)C)NC(=O)[C@H](CCCCN)NC1=O (stereo partly drawn) |  | ATCC 25922 | 1× MIC |  | time to complete killing | ≤ 6 h
CC[C@H](C)[C@H](NC(=O)[C@H](CCCCN)NC(=O)[C@H](CC(N)=O)NC(=O)CNC(=O)[C@@H](NC(=O)[C@H](C)NC(=O)[C@H](CCCNC(=N)N)NC(=O)[C@H](CC(C)C)NC(=O)[C@H](CCCCN)NC(=O)[C@H](CCCCN)NC(=O)[C@H](CCCCN)NC(=O)[C@H](C)NC(=O)[C@H](CCCCN)NC(=O)[C@@H]1CSSC[C@H](NC(=O)[C@H](CCCNC(=N)N)NC(=O)CN)C(=O)N[C@@H](CC(N)=O)C(=O)N[C@@H](CC(C)C)C(=O)N[C@@H](CC(C)C)C(=O)N1)C(C)C)C(=O)N[C@@H](CCCCN)C(=O)N[C@@H](CCC(=O)O)C(=O)N[C@H](C(=O)N[C@@H](CCCCN)C(=O)N[C@@H](CC(N)=O)C(=O)N[C@H](C(=O)N[C@H](C(=O)N[C@@H](Cc1ccccc1)C(=O)N[C@@H](CC(N)=O)C(=O)N[C@@H](CCCNC(=N)N)C(=O)O)C(C)C)C(C)C)[C@@H](C)CC | time-kill | ATCC 25922 | 25 µM |  | time to complete killing | ≤ 1.5 h
CCCCCCCCCCCCCCCCCC(=O)N[C@@H](CCCCN)C(=O)N[C@@H](CCCCN)C(=O)N[C@@H](CCCCN)C(=O)N[C@@H](CCCCN)C(=O)N[C@@H](CCCCN)C(N)=O | crystal violet | K12 | 32 µg/mL |  | biofilm inhibition | 39.5%
O=S(=O)(c1ccccc1)N(CCc1nnc(S)o1)c1ccccc1 | cup plate method |  | 100 µg/mL | reference: cotrimoxazole | relative inhibition | 20.7%
C[C@]1(COC(=O)Cc2ccc(O)c(O)c2)[C@H](C(=O)O)N2C(=O)/C(=C/c3ccccn3)[C@H]2S1(=O)=O | broth microdilution | TG1 expressing DHA-1 | 16 µg/mL |  | MIC of ceftazidime | ≤ 0.06 µg/mL

SMILES | test | test system | setting | how to read | endpoint | value
CC(CCCOC(=O)CCC[N+](C)(C)C)C1CCC2C3CCC4CC(OC(=O)CCC[N+](C)(C)C)CCC4(C)C3CC(OC(=O)CCC[N+](C)(C)C)C12C (stereo not drawn) | inner membrane permeabilization, ONPG hydrolysis |  | 90 min |  | permeabilizing concentration | ≥ 15.6 µg/mL
C[C@]1(COC(=O)c2ccccc2O)[C@H](C(=O)O)N2C(=O)/C(=C/c3ccccn3)[C@H]2S1(=O)=O | broth microdilution | TG1 expressing FOX-4 | 16 µg/mL |  | MIC of ceftazidime | 2 µg/mL
O=C(O)[C@@H]1Cc2c([nH]c3ccccc23)[C@@H](c2ccccc2Cl)N1 |  | BL21(DE3) | 250 µM, 18 h |  | growth inhibition | 0%
CC(=O)[O-].O.O.O.O.[Co+2].[O-]c1ccc(Br)cc1C=NCCN1CCOCC1 |  |  | 20 µL of 100 µM per disc |  | inhibition zone diameter | 17 mm
CC[C@H](C)[C@H](NC(=O)[C@H](CS)NC(=O)[C@@H](NC(=O)[C@@H]1CCCN1C(=O)[C@H](Cc1ccccc1)NC(=O)[C@H](CC(N)=O)NC(=O)[C@@H](NC(=O)[C@H](CC(=O)O)NC(=O)CCNC(=O)CNC(=O)O[C@H]1CC[C@@]2(C)C(=CC[C@H]3[C@@H]4CC[C@H]([C@H](C)CCCC(C)C)[C@@]4(C)CC[C@@H]32)C1)[C@@H](C)O)[C@@H](C)CC)C(=O)N[C@@H](Cc1ccccc1)C(N)=O |  | mouse, lung | intratracheal, 25 nmol per mouse, 24 h |  | α-SMA expression | increased
COc1ccc(/N=N/C(=S)N2CCCC2)cc1 | microbial growth | ATCC 8739, ATCC8739 | 24 h |  | IC50 | > 50 µM
c1ccc(CN2CCOCCOCCN(CCCCCCCCCCCCCCN3CCOCCOCCN(CCCCCCCCCCCCCCN4CCOCCOCCN(Cc5ccccc5)CCOCCOCC4)CCOCCOCC3)CCOCCOCC2)cc1 |  | tetracycline-resistant | up to 1/2 MIC, outcome: no inhibition |  | growth inhibition | no inhibition
CNC1=C([N+](=O)[O-])C2(C(=O)Nc3ccc(Cl)cc32)C2=C(O1)C(=O)c1ccccc1C2=O (stereo not drawn) | microbial growth | ATCC25922 | 250 µg/mL, 24 h |  | inhibition | 84.3%
O=c1c(Cl)c(Cl)cnn1Cc1ccccc1Cl |  | wild type, minimal medium | anaerobic |  | concentration for full growth inhibition | 10 µM
c1ccc(CN2CCOCCOCCN(CCCCCCCCCCN3CCOCCOCCN(CCCCCCCCCCN4CCOCCOCCN(Cc5ccccc5)CCOCCOCC4)CCOCCOCC3)CCOCCOCC2)cc1 | K+ selective electrode | tetracycline-resistant | 4 µM, 10 min | reference: total | potassium release | 4%
COc1ccc2c(c1CC=C(C)C)O[C@H]1c3cc4c(cc3OC[C@@]21O)OC(C)(C)C=C4 |  | TISTR 780 | concentration not given |  | antibacterial activity | inactive
CCCCCCCCCC1CC2CCCC3CC(CCCCCCCCC)NC(=N1)N23 (stereo not drawn) | bacterial growth | ATCC 35218 |  |  | IC50 | 6.33 µM
CCN1CCN(Cn2nc(C34CC5CC(CC(C5)C3)C4)n(-c3ccccc3)c2=S)CC1 |  | IFO 3301 | 200 µg/disc, 24 h, 37 °C |  | inhibition zone diameter | < 10 mm
CCOC(=O)C1=C(C)NC2=C(C(=O)CC(C)(C)C2)C1c1ccc(OCC(=O)NN=Cc2cc(Br)c(O)c(Br)c2)cc1OCC(=O)NN=Cc1cc(Br)c(O)c(Br)c1 (stereo not drawn) |  | ATCC 25922 | concentration not given, 24 h, 37 °C |  | inhibition zone diameter | 6.6 ± 0.01 mm
CC(=NNC(=N)N)c1nnn(-c2ccc(C#CC3(O)CCCCC3)cc2)c1C |  | ATCC 25922 | concentration not given |  | inhibition zone diameter | 30.7 ± 0.47 mm
COc1ccc(-c2ccn(CC[C@](C)(C(=O)NO)S(C)(=O)=O)c(=O)c2)c(F)c1 | microbial growth, broth dilution |  | clinical isolate |  | MIC90 | 0.25 µg/mL
Cc1cc(O)cc2c1C(=O)c1c(cc3oc(=O)cc(-c4ccccc4)c3c1O)C2=O |  | MTCC 739 | 100 µg/disc |  | inhibition zone diameter | 12 mm
Cn1c(SCCN2CCCCC2)nnc1C12CC3CC(CC(C3)C1)C2 |  | IFO 3301 | 200 µg/disc, 24 h, 37 °C |  | inhibition zone diameter | < 10 mm

For quick reference, copied from above:
SMILES | test | test system | setting | how to read | endpoint | value
CC(=NNC(=N)N)c1nnn(-c2ccc(C#CC3(O)CCCCC3)cc2)c1C |  | ATCC 25922 | concentration not given |  | inhibition zone diameter | 30.7 ± 0.47 mm
O=C(O)[C@@H]1Cc2c([nH]c3ccccc23)[C@@H](c2ccccc2Cl)N1 |  | BL21(DE3) | 250 µM, 18 h |  | growth inhibition | 0%
CCOC(=O)C1=C(C)NC2=C(C(=O)CC(C)(C)C2)C1c1ccc(OCC(=O)NN=Cc2cc(Br)c(O)c(Br)c2)cc1OCC(=O)NN=Cc1cc(Br)c(O)c(Br)c1 (stereo not drawn) |  | ATCC 25922 | concentration not given, 24 h, 37 °C |  | inhibition zone diameter | 6.6 ± 0.01 mm
